Measurements pooled from the literature.
Each numbered part is a random draw from the data of one study; scales do not carry over between parts. Positions count from the first letter of the parent shown.

Block 1
Target: Histone acetyltransferase KAT6A, winged helix 2, GST fusion (KAT6A, Homo sapiens, UniProt Q92794, residues 85-181)
Method: protein binding microarray
Form: double-stranded DNA, one strand shown
Sample: in vitro
Concentration: not given
Notes: 8-mer, flanks averaged, mean of 2 arrays, mostly near background
Reference: not given
Reading: higher = stronger binding
Target sequence (chain): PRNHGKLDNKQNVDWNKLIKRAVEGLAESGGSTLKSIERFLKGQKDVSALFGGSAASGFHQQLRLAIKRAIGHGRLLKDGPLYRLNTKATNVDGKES
Strand	E-score
CGATAAAG	-0.0193
CGAGATGA	0.0477
GAGGTCGA	0.152
CTACGTTC	-0.0132
TAGACTAA	-0.136
ATACCTGG	-0.312
CCACAGGC	-0.054
ACCATCGC	0.0214
CCACGTTA	-0.091
CATTCTCA	-0.0416
AGCGTCAA	0.0317
TACCCCGA	0.0459
ATTCGTCG	0.158
GCGAGGCC	0.159
ACTTCTGC	0.0117
TCTCAGCA	0.0341
ACGACGGG	0.119
GCCGGGGA	0.0397

Block 2
Target: RNA binding protein fox-1 homolog 2, RRM domain, GST-SBP tag (RBFOX2, Homo sapiens, UniProt O43251-10, residues 100-194)
Method: RNA Bind-n-Seq
Form: RNA
Sample: in vitro
Concentration: 365 nM
Notes: natural RNA segment, single round, ends assumed
Reference: no-protein control
Reading: higher = stronger binding
All sequences stand within: GGGAGUUCUACAGUCCGACGAUC … UGGAAUUCUCGGGUGCCAA
Construct (chain): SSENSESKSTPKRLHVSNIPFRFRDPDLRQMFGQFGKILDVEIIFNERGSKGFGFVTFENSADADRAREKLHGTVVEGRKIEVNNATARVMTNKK
Strand	RBNS enrichment (R)
CUCACAACACCACACCUGGCAAAUUUGAUUUUUUUUUUUUUUCCAGAGACGGGGUCUCGCAACAUUGCCCAGACUUCCUUUGUGUUAGUUAAUAAAGCUUUCUCAACUGC	0.35
UUUGUAUAUCAAAUUUCCAUUGUCAUUAAAAACUGUAUCUUGAAACUUUGUGAACUGACUUGCUGUAUUUGCACUUUGAGCUCUUGAAAUAAAUGUGAUUUUUGUGUGAU	2.65
UCAUCUGUACUAUUCUGUGUUACUCUUGGUUUCUGGCCACUUUUCAGAAUGAAGAUGAAUGGCCUGACCAGCUAUCUAGGGUUUGGGGAGAUGCAAAAUUGUAAAAUUCC	0.614
GUGUGCAAAGAAAAGAACUGCUUGCAUUUCUUUAUUUCUGUCUCAUAAUUGUCAAAAACCAGAAUUAGGUCAAGUUCAUAGUUUCUGUAAUUGGCUUUUGAAUCAAAGAA	0.377
CAGAUACCCAGUGGAAUUCCAACUUGAAGGAUUGCAUCCUGCUGGGGCUGAACAUGCCUGCCAAAGACGUGUCCGACCUACGUUCCUGGCCCCCUCAUUCAGAGACUGCC	0.819
UCUGUCUGGUCCGAGAUGACCCUCUGGUCCAGGCCUCGCUGACACUUUUGUUCUCAGCUUCUGCCAUCUGUGACUACUGAUAUCCUGGAUGGACACCUUGCUGGACUUGA	0.223
CAUUUUCCAAAGUUUCAUUGCAUUCUCCCUUGGGGAGGCUGUGAGAGAGGGCUUGUAUCCCUCUUGUGCUAAGCAGACUCUACUCCUAACUGACUUCAAUAUUUCAGCAG	0.273
UUAACCUACACAUAGUCUAUACAUAGAUGCAUAUUUUACCCCCAGCUGGCUAGAGAUUUAUUUGUUGUAAAUGCUGUAUAGAUUUGGUUUUCCUUUCUUUACUUACCCUG	0.746
GUGGGCAAUGUUGGCGCUCACCUGGUCAGUGCACCAGUACCAGGUGGCCAUGAUGGUCAGACCAAAGGUCAUCCCAGUCCACGGGAGGUCUCCUGUGGAAGGGUCCCGGA	0.537
AAAAGUGACCUAGAAAGCCCAGUAGGAACCACAGAGCUCAAGCUGUCUGGCUCAAGUGGUGGAAGAGUGAGGGAGUCUGCAGUUUGUAAGUCUCGUUCUGUUGUGUUCUG	1.3
GACUUACAUUCCCAGUGUGCCUGCCAGCUGCAAUGAGGACUCUAAACUCAAGUAGAACAAAUCCCUUCUUGGUCUUCUGGGACCACUAGAGGUCACCGUGUCCAGUCCUU	0.541
AAAGCACCAUCAUCAUAGAGGAUGAUGUAAUUAAAAAAUGGUCAGUGUGCAAAGAAAAGAACUGCUUGCAUUUCUUUAUUUCUGUCUCAUAAUUGUCAAAAACCAGAAUU	1.07

Block 3
Target: ABI1, truncated, D143A, DHFR fusion (Arabidopsis thaliana)
Method: DHFR PCA, deep sequencing
Sample: yeast
Notes: methotrexate growth selection, single substitutions
Added: (+)-ABA 4.8 µM
Reference: wild-type fitted maximum
Reading: higher = stronger binding
Parent: PYL1, truncated, DHFR fusion (Arabidopsis thaliana); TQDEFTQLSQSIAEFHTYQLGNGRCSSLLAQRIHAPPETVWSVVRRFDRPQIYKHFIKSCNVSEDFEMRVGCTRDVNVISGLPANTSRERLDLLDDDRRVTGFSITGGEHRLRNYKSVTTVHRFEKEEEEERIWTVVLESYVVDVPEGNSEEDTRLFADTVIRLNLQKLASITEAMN; partner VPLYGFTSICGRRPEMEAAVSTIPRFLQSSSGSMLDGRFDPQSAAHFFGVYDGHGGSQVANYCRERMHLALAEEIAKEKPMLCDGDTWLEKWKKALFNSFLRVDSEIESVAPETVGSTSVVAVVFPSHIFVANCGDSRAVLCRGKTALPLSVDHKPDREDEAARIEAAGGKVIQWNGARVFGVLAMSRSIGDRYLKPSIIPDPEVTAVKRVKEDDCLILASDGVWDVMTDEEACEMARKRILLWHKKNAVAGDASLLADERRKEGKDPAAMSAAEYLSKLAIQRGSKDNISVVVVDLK
Change	relative binding score [%]
F124H	26.1
P36C	48.2
T106K	17.3
S171N	79.7
T17M	32.5
V121W	-6.16
N165C	-8.18
R74P	0.651
S42E	75.7
L94G	-10.6
E67Q	73.4
S117W	-1.53
G23M	44.7
C72H	37.7
N177D	72.8
S104V	-0.886
R45M	-4.67
N114P	5.94
N177V	94.5

Block 4
Target: Prothrombin, mature alpha-thrombin (F2, Homo sapiens, UniProt P00734)
Method: aptamer microarray, sandwich
Form: DNA with 2'F-ANA
Sample: in vitro
Concentration: 200 nM
Notes: whole 15-mer aptamer, many near background
Added: Cy3 exosite-II aptamer, 400 nM
Reading: higher = stronger binding
Strand: GGTTGGTGTGGTTGG
Modification	mean fluorescence intensity [a.u.]
2'F-ANA at 3 7 9 10 13	577
2'F-ANA at 1 7 8 9 10 13 15	74.1
2'F-ANA at 3 4 5 6 8 11 14 15	49.1
2'F-ANA at 1 2 5 6 8 9 10 12 13 14	54.3
2'F-ANA at 3 10 14 15	403
2'F-ANA at 2 6 7 13 15	273
2'F-ANA at 2 3 4 5 6 9 13 14 15	48.3
2'F-ANA at 4 12	702
2'F-ANA at 1 5 6 7 10 11 12	47.6
2'F-ANA at 1 4 5 6 7 9 11 13 14 15	45.9
2'F-ANA at 9 11	526
2'F-ANA at 1 5 6 7 9 10 11 12 15	50.4
2'F-ANA at 2 3 5 9 10 11 12	63
2'F-ANA at 3 4 6 10 11 12 13	243
2'F-ANA at 3 4 6 7 9 10 11 12 14 15	303
2'F-ANA at 2 4 6 7 8 9 10 13 14 15	101
2'F-ANA at 2 4 7 9 10 11 12	124
2'F-ANA at 1 2 3 4 5 7 10 14	44.5
2'F-ANA at 1 2 3 9 11 12 13 15	331
2'F-ANA at 8 12 14 15	259
2'F-ANA at 1 3 5 7 8 9 10 11 12 14 15	47.6
2'F-ANA at 1 2 3 4 9 11 12	264
2'F-ANA at 1 3 4 6 8 9 10 11 15	63
2'F-ANA at 1 4 5 7 10 13 14 15	45.1
2'F-ANA at 1 6 8 9 12 15	431

Block 5
Target: CCNF, cyclin fold, Cln2 fusion (human)
Method: yeast growth competition, sequencing
Sample: yeast
Notes: strong parent motif
Reference: not given
Reading: higher = stronger binding
Parent: PKMYT1 docking peptide (human); SFEPRNLLSLFED
Change	normalised enrichment score
S9Q	1.33
S1L	2.04
P4M	-0.5
R5G	-0.198
N6G	-0.224
R5H	-1.43
L8I	0.775
E12C	1.44
L8V	-1.12
S1D	0.732
S1N	2.42
P4L	-0.79
L10C	0.47
L7A	-0.893
S9M	1.42
F2A	-0.118
F2N	0.0724
